Measured values of several laboratories.
Compare with care: the assays were run in different laboratories. “And” joins repeats or separate records; there may be more than shown. ± gives the spread as reported.

By UniProt entry, the sequences of proteins in these tests, tags left out.
UniProt P08183, whole entry: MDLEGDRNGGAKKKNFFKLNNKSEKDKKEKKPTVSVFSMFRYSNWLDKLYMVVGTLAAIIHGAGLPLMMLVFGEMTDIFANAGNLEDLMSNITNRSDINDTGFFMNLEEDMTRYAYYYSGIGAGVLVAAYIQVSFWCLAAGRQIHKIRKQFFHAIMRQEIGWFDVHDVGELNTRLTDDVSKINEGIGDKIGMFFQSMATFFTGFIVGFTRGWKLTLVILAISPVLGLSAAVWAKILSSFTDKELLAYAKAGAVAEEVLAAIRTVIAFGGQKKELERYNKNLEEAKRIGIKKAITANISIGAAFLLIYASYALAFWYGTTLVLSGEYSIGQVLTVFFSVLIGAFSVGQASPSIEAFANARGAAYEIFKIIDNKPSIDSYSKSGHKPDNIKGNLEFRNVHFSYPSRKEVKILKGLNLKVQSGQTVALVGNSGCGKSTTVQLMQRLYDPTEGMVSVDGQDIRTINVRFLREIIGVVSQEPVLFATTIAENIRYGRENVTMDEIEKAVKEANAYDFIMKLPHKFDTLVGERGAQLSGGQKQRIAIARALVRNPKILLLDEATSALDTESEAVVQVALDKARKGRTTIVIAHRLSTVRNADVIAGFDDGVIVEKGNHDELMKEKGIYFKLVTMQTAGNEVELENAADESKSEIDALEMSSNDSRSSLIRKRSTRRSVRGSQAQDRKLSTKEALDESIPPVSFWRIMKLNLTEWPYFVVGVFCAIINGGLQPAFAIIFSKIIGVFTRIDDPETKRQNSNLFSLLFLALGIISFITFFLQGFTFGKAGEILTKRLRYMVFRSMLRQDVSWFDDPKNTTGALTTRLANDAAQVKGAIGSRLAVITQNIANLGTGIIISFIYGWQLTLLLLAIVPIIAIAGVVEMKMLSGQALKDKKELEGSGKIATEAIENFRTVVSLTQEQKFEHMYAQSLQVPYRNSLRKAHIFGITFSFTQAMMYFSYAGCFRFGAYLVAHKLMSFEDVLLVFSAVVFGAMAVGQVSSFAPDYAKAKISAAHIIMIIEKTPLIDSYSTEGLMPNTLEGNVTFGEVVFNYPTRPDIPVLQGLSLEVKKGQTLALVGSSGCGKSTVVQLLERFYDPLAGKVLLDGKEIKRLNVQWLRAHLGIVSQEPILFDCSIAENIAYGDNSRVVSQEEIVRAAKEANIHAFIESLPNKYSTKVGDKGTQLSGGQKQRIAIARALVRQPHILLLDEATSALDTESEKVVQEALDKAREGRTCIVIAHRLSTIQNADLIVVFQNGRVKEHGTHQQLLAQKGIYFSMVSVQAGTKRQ
UniProt Q16539, whole entry: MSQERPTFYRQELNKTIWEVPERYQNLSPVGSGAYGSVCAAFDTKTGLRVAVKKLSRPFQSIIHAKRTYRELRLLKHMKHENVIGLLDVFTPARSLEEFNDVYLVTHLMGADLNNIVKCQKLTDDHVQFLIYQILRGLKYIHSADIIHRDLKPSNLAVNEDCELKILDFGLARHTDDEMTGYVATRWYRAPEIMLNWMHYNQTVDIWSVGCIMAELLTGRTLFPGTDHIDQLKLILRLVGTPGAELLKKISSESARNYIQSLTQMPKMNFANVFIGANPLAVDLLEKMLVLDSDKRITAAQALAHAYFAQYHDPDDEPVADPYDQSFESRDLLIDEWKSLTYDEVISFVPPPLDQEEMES

Compound	target or system	test	test system	setting	scale	quantity	result
Cc1cc(S(=O)(=O)N[C@H](C)CO[C@H]2CC[C@H](CN3CCN(c4ccc5c(c4F)n(C)c(=O)n5C4CCC(=O)NC4=O)CC3)CC2)ccc1Nc1ncc(C(F)(F)F)c([C@H]2CC[C@@](C)(O)CC2)n1 (stereo partly shown)	ABCB1 (Homo sapiens, UniProt P08183)	bidirectional permeability	MDCK transfected with ABCB1	–	baseline: B-A over A-B permeability	efflux ratio	> 530
Cc1c(Cn2c(C)nc3c(C(=O)O)cc(N4CCOCC4)cc32)cccc1C(F)(F)F	C4-2B enzalutamide-resistant	cell growth, WST-8	–	3 days	–	EC50	38300 nM
CC(C)C[C@H](NC(=O)[C@H](C)NC(=O)[C@H](CCCNC(=N)N)NC(=O)[C@H](CCCNC(=N)N)NC(=O)[C@H](CCCNC(=N)N)NC(=O)[C@H](C)NC(=O)[C@H](CC(C)C)NC(=O)[C@H](CCCNC(=N)N)NC(=O)[C@H](CO)NC(=O)[C@H](CCCCN)NC(=O)[C@H](CO)NC(=O)Cn1cc(COC(=O)[C@]2(C)C=C(C(=O)OC(C)(C)C)C(=O)CC2)nn1)C(=O)O	MAPK14 (Homo sapiens, UniProt Q16539)	enzyme activity, inhibitor, D-SENSOR kinase	–	0.03048 µM, unit not given	baseline: untreated	remaining activity	1.04 and 0.874 and 0.915
CC(C)C[C@H](NC(=O)[C@@H](NC(=O)[C@H](CC(C)C)NC(=O)[C@H](CS)NC(=O)CNS(=O)(=O)c1cccc2c(N(C)C)cccc12)C(C)C)C(=O)O	geranylgeranyltransferase type-I (Rattus norvegicus, UniProt P53610+Q04631)	substrate, fluorescence	–	30 °C, together with: SmgGDS-558 5 µM and GGPP 10 µM	–	Km	2 ± 1.2 µM
N#Cc1c(-c2ccc(Cl)cc2Cl)n(-c2nc(-c3ccc(Cl)cc3)c3c(NC(=O)c4ccccc4)nnc-3[nH]2)[nH]c1=O	SF-295	SRB	–	–	–	GI50	3880 nM
CN1C(=O)CCc2cc(CNC(C)(C)[C@@H](O)c3ccccc3)ccc21	–	–	CD-1 mouse, male, plasma	subcutaneous, 10 mg/kg	–	half-life	27.8 min
CCOC(=O)c1c(-c2ccc(Cl)cc2Cl)n(-c2nc(-c3ccc(Cl)cc3)c3c(NC(=O)c4ccccc4)nnc-3[nH]2)[nH]c1=O	HCT-15	SRB	–	10 µM	baseline: untreated	cell growth	-29.7%
CC(C)C[C@H](NC(=O)[C@H](CC(C)C)NC(=O)[C@H](CC(=O)O)NC(=O)[C@@H](N)CCCCN)C(=O)N[C@@H](CCC(=O)O)C(=O)N[C@@H](CCC(N)=O)C(=O)N[C@@H](CCCCN)C(=O)N[C@@H](CCCNC(=N)N)C(=O)N[C@@H](C)C(=O)N[C@@H](C)C(=O)N[C@H](C(=O)N[C@@H](CC(=O)O)C(=O)N[C@H](C(=O)N[C@@H](Cc1ccc(O)cc1)C(=O)N[C@@H](CS)C(=O)O)[C@@H](C)O)C(C)C	RAW264.7 preosteoclast	ROS production, CM-H2DCFDA fluorescence	–	500 min	–	EC50	450 nM
CC(C)CC(NC(=O)C(Cc1ccccc1)NC(=O)c1cnc(C(=O)NC(Cc2ccccc2)C(=O)NC(CC(C)C)B(O)O)cn1)B(O)O (stereo not shown)	MM.1R	cell viability, CellTiter-Glo	–	48 h	–	IC50	4.5 nM
CC/C=C\C/C=C\CCC/C=C/C=C/C=C\CCCC(=O)O	NALM-6	flow cytometry	–	37.5 µM, 24 h	–	G1 phase cells	47.6%
Cc1ccc(S(=O)(=O)Nc2ccccc2C(=O)Nc2nc(-c3ccccc3)cs2)cc1	GALT-deficient patient fibroblasts	no effect, ATP luminescence	–	up to 25 µM, 24 h, 0.05% galactose challenge	–	viability	no effect
CON(C1CC[C@@]2(C)[C@H](CC[C@@H]3[C@@H]2CC[C@]2(C)[C@@H](c4ccc(=O)oc4)CC[C@]32O)C1)C1OCC(O)C(O)C1O (stereo partly shown)	HeLa	cell proliferation, MTT	–	–	–	IC50	26.8 ± 2.3 nM
CN(C)CCNC(=O)c1cc([N+](=O)[O-])cc2ccc(-c3ccccc3)nc12	MDA-MB-468	cytotoxicity, MTT	–	3 h exposure, 96 h total	–	IC50	12000 ± 2200 nM
Cc1ccc(C#Cc2cc(-c3nn(-c4nc(C(=O)O)cs4)c(CC4CC4)c3Cc3ccc(S(N)(=O)=O)c(F)c3)ccc2F)s1	HEK293T	lactate production	–	1 h	–	IC50	400 nM
C=C(C)C(=O)Nc1ccc(-c2c(-c3ccc(Oc4nccc(C)n4)c(F)c3)c3c(N)ncnc3n2C)cc1	MFE-280	cell growth, CellTiter-Glo	–	120 h	–	EC50	665 nM
CN(C)CCNC(=O)c1cccc2ccc(-c3ccc(-c4ccccc4)cc3)nc12	K562	cytotoxicity, XTT	–	96 h	–	IC50	1800 ± 1200 nM

A few entries again:
Compound	target or system	test	test system	setting	scale	quantity	result
CC/C=C\C/C=C\CCC/C=C/C=C/C=C\CCCC(=O)O	NALM-6	flow cytometry	–	37.5 µM, 24 h	–	G1 phase cells	47.6%
Cc1ccc(S(=O)(=O)Nc2ccccc2C(=O)Nc2nc(-c3ccccc3)cs2)cc1	GALT-deficient patient fibroblasts	no effect, ATP luminescence	–	up to 25 µM, 24 h, 0.05% galactose challenge	–	viability	no effect
